Experimental data pooled from the literature.
± marks the error that the study gave.

With `CC1(COc2ccc3c(c2)ncn3-c2ccc3cccc(N4CCC(N)CC4)c3n2)COC1` the AUC(0-inf) was 3.98 µM·h (human patients, recurrent/progressive HGG or DIPG, serum; oral, 100 mg/m^2, day 1, median).
`Cc1ccc(C)c(OCCCC(C)(C)C(=O)O)c1` gave an AUC(0-inf) of 104000 ng·h/mL (human, plasma; oral, 600 mg single, before lopinavir/ritonavir, geometric mean).
The AUC(0-inf) of `C[C@H]1CN(C(=O)CC#N)[C@]12CCN(c1ncnc3[nH]ccc13)C2` is reported as 39.6 ng·h/mL (healthy adult humans, plasma; oral, 1.5 mg single, geometric mean).
`CC(C)n1c(Nc2cccnc2)nc2cnc(Nc3ccc(N4CCN(C)CC4)cc3)nc21` has an AUC(0-inf) of 1000 ng·h/mL (human, male, plasma; oral, 150 mg, day 15, added: rifampin 600 mg daily).
`CC(=O)c1cc(C(=O)N[C@@H](C)Cn2ccc(-c3ccc(C#N)c(Cl)c3)n2)[nH]n1` gave an AUC(0-inf) of 21600 ng·h/mL (human, fasted, plasma; oral tablet, 300 mg, geometric mean).
With `C=CC(=O)N(C)CCOc1c(N)ncnc1-c1cc(F)cc(NC(=O)c2ccc(C3CC3)cc2F)c1C` the AUC(0-inf) was 1080 ± 935 ng·h/mL (human, whole blood; oral, 400 mg, single ascending dose).
`C=CC(=O)NC1CCN(c2ncc3ncnc(Nc4ccc(Oc5ccc6c(c5)ncn6C)c(C)c4)c3n2)CC1` gave an AUC(0-inf) of 4.31 µM·h (human, male, plasma; oral, 30 mg single dose, fed, geometric mean).
`C[C@H](Oc1ccc(Br)cc1-c1ccon1)C(=O)O` has an AUC(0-inf) of 148000 ng·h/mL (healthy male humans, plasma; oral, 600 mg once daily, day 1).
`N#Cc1cccc(-c2ccc3ncc(-c4cc(F)cc(F)c4)c(N4CCC(N)CC4)c3c2)c1O` gave an AUC(0-inf) of 2700 ng·h/mL (human, plasma; oral, 20 mg single dose, geometric mean).
`Cn1nnc2c(C(N)=O)ncn2c1=O` gave an AUC(0-inf) of 4830 ng·h/mL (human patients, plasma; oral, 30 mg/m2, day 5, dose level DL4, median, added: talazoparib 600 µg/m2).
The AUC(0-inf) of `Cn1c(=O)oc2ccc(-c3ccc(C[C@@H](C#N)NC(=O)[C@@H]4CNCCCO4)cc3)cc21` is reported as 2640 ng·h/mL (human, severe renal impairment, plasma; oral, 25 mg single dose, geometric least squares mean).
With `Cn1cncc1[C@@](N)(c1ccc(Cl)cc1)c1ccc2c(c1)c(-c1cccc(Cl)c1)cc(=O)n2C` the AUC(0-inf) was 322 ng·h/mL (human, plasma; oral, dose not given, added: ranitidine).
The AUC(0-inf) of `NC(CO)(CO)CCc1ccc(Sc2cccc(OCc3ccccc3)c2)cc1Cl` is reported as 110 ng·h/mL (human male, whole blood; oral, 3 mg, given alone).
`N[C@@H]1c2cccnc2[C@H](OC(=O)N2CCC(n3c(=O)[nH]c4ncccc43)CC2)CC[C@H]1c1cccc(F)c1F` has an AUC(0-inf) of 5280 ng·h/mL (human, plasma; oral, 75 mg single dose, alone, arithmetic mean, fluconazole DDI study).
With `O=C(NC[C@H]1CN(c2ccc(N3CCOCC3=O)cc2)C(=O)O1)c1ccc(Cl)s1` the AUC(0-inf) was 1750 ng·h/mL (human with normal renal function, plasma; oral, 10 mg single dose, geometric mean).
`C[C@@H](Cn1ccc(-c2ccc(C#N)c(Cl)c2)n1)NC(=O)c1cc([C@@H](C)O)[nH]n1` gave an AUC(0-inf) of 3560 h·pg eq/mL (healthy male human, plasma; intravenous infusion, 100 µg 14C-labelled, 15 min infusion, microtracer, geometric mean).
`N#CN1C[C@H](n2nc(-c3ccc(Oc4ccc(Cl)cn4)cc3)c(C(N)=O)c2N)CCC12CC2` gave an AUC(0-inf) of 22000 ± 7830 ng·h/mL (human, fasted, plasma; oral, 600 mg).
With `Nc1ccn([C@@H]2O[C@H](CO)[C@@H](O)C2(F)F)c(=O)n1` the AUC(0-inf) was 17800 ng·h/mL (human, plasma; dose not given, mean, after paricalcitol).
Under AUC(0-inf), `CC1(C)CC[C@]2(NC(=O)C(C)(F)F)CC[C@]3(C)[C@H](C(=O)C=C4[C@@]5(C)C=C(C#N)C(=O)C(C)(C)[C@@H]5CC[C@]43C)[C@@H]2C1` is recorded as “no effect” (human; dose not given, added: gemfibrozil; relative to: compound alone).
With `Cc1cc(C)c(CNC(=O)c2cc(Cl)c3c(c2C)O[C@@](C)([C@H]2CC[C@H](N(C)C)CC2)O3)c(=O)[nH]1` the AUC(0-inf) was 1110 ng·h/mL (mean; healthy male humans, plasma; oral, 25 mg, day 12, added: fluconazole).
For `Cc1nc2ccc(F)cc2n1-c1nc(N)c(F)c(Nc2ccc(C(F)(F)F)cc2)n1`, the AUC(0-inf) was 16500 ng·h/mL (human patients, plasma; oral, 200 mg twice weekly, cycles 1 and 2 pooled).
`NC[C@@]1(CC(=O)O)[C@@H]2CC[C@H]3C[C@@H]2[C@@H]1C3` gave an AUC(0-inf) of 6660 ng·h/mL (human, severely renal impairment, plasma; dose not given, geometric least squares mean).
With `CN1C(=O)[C@@H](NC(=O)c2nnc(Cc3ccccc3)[nH]2)COc2cccnc21` the AUC(0-inf) was 87300 ng·h/mL (healthy human, fasted, plasma; oral, 800 mg single dose, geometric mean).
The AUC(0-inf) of `CN(CC#N)C(=O)C[C@H](Nc1nc2ccccc2[nH]1)c1cccc(C(F)(F)F)c1` is reported as 25700 ± 5080 ng·h/mL (human; intravenous infusion, 6 mg/kg, 1 mg/mL formulation).
With `C[C@@H](Oc1ccc(S(C)(=O)=O)cc1C(=O)N1C[C@@H]2C[C@]2(c2cc(C(F)(F)F)on2)C1)C(F)(F)F` the AUC(0-inf) was 11.7 µM·h (elderly humans, plasma; oral, 25 mg once daily, single dose, geometric mean).
With `Cc1ccc(C(=O)N(CCCN)C(c2nc3snc(C)c3c(=O)n2Cc2ccccc2)C(C)C)cc1` (stereo not shown) the AUC(0-inf) was 571 ng·h/mL (human; intravenous, 13 mg/day, course day 3 following induction).
With `N[C@]1(C(=O)O)[C@H]2[C@@H](C[C@@H]1F)[C@@H]2C(=O)O` the AUC(0-inf) was 513 ng·h/mL (human, plasma; oral, 10 mg single dose, fasted).
For `Cn1cncc1[C@@](N)(c1ccc(Cl)cc1)c1ccc2c(c1)c(-c1cccc(Cl)c1)cc(=O)n2C`, the AUC(0-inf) was 5310 ng·h/mL (human, with dose-limiting toxicity, plasma; oral, dose not given, median).
`COC(=O)N[C@H](C(=O)N1CCC[C@H]1c1nc2cc([C@H]3CC[C@H](c4cc5nc([C@@H]6CCCN6C(=O)[C@@H](NC(=O)OC)[C@@H](C)OC)[nH]c5cc4F)N3c3cc(F)c(N4CCC(c5ccc(F)cc5)CC4)c(F)c3)c(F)cc2[nH]1)[C@@H](C)OC` has an AUC(0-inf) of 2200 ng·h/mL (healthy human subjects, plasma; oral, dose not given, single dose alone).
For `C[C@@H](N)c1cc(Cl)ccc1Cn1c(=S)[nH]c(=O)c2[nH]ccc21`, the AUC(0-inf) was 0.69 µM·h (human, both sexes, severe renal impairment, plasma; oral, 2.5 mg single dose, geometric mean).
With `FC(F)(F)c1ccc(CNc2ccc(Cc3c[nH]c4ncc(Cl)cc34)cn2)cn1` the AUC(0-inf) was 163000 ng·h/mL (measured: total radioactivity; healthy human male, plasma; oral, 400 mg [14C]-labelled).
`Cc1cc(Nc2cc3ncccc3c(N[C@@H]3C[C@H]4CC[C@@H](C3)N4CCC#N)n2)n[nH]1` has an AUC(0-inf) of 0.87 ng·h/mL (human, plasma; 10 mg single dose, mean).
The AUC(0-inf) of `C#C[C@]1(CO)O[C@@H](n2cnc3c(N)nc(F)nc32)C[C@@H]1O` is reported as 25 µM·h (human, plasma; oral, 200 mg, single dose, geometric mean).
`CNC(=O)c1c(C)oc2cc(Oc3ncnc4cc(OC)c(OC)cc34)ccc12` gave an AUC(0-inf) of 5210 ng·h/mL (human, moderate hepatic impairment (Child-Pugh), plasma; oral, 2 mg, single dose).
For `COc1c(N2C[C@@H]3CCCN[C@@H]3C2)c(F)cc2c(=O)c(C(=O)O)cn(C3CC3)c12`, the AUC(0-inf) was 28100 ± 5870 ng·h/mL (human, plasma; oral, 400 mg, day 5).
The AUC(0-inf) of `Cn1cc(-c2ccc(S(=O)(=O)[C@@H]3C[C@@H](C(=O)NC4(C#N)CC4)N(C(=O)C4(C(F)(F)F)CC4)C3)c(C(F)(F)F)c2)cn1` is reported as 22300 ng·h/mL (noncompartmental analysis; human, plasma; oral, 200 mg, day 1, with food, geometric mean).
The AUC(0-inf) of `CN(C)C(=O)c1cc2cnc(Nc3ccc(N4CCNCC4)cn3)nc2n1C1CCCC1` is reported as 10900 ng·h/mL (human, severe renal impairment, plasma; oral, 400 mg, geometric mean).

For quick reference, copied from above:
`NC[C@@]1(CC(=O)O)[C@@H]2CC[C@H]3C[C@@H]2[C@@H]1C3` gave an AUC(0-inf) of 6660 ng·h/mL (human, severely renal impairment, plasma; dose not given, geometric least squares mean).
The AUC(0-inf) of `C#C[C@]1(CO)O[C@@H](n2cnc3c(N)nc(F)nc32)C[C@@H]1O` is reported as 25 µM·h (human, plasma; oral, 200 mg, single dose, geometric mean).
With `N[C@]1(C(=O)O)[C@H]2[C@@H](C[C@@H]1F)[C@@H]2C(=O)O` the AUC(0-inf) was 513 ng·h/mL (human, plasma; oral, 10 mg single dose, fasted).
